# Published values from different studies.
# A part holds a random share of what one study measured. Substitutions count along the parent as printed.

# Set 1 — technique: Sort-seq; measured: YFP reporter; matrix: E. coli; setting: PhoQ-PhoP variant library; with: 10 µM Mg2+; relative to: high Mg2+ state; reading: higher = stronger signaling
# Substance: PhoQ, residues 284 288 289 292 302 303 AEGLLW
target,fold induction
"PhoP, residues 12 14 15 18 19 GMGLL (Escherichia coli, UniProt P23836)",0.568
"PhoP, residues 12 14 15 18 19 QQAYL (Escherichia coli, UniProt P23836)",21.1
"PhoP, residues 12 14 15 18 19 LFHKL (Escherichia coli, UniProt P23836)",5.07

# Set 2 — technique: RNAcompete; form: RNA; matrix: in vitro; concentration: 20 nM; setting: 7-mer, probes averaged, single round; relative to: mean of 7-mers; reading: higher = stronger binding
# Target: PABPC1L2, full length, GST fusion (mouse, UniProt A0ABA7IW68)
# Target sequence (chain): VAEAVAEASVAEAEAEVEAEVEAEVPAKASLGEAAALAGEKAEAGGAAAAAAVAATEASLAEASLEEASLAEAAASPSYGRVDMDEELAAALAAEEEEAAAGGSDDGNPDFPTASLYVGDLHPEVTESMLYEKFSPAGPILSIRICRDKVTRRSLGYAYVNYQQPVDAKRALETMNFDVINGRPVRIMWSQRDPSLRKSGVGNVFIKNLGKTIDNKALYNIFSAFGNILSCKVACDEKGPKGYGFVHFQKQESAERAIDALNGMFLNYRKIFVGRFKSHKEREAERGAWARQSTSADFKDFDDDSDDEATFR
Strand,7-mer Z-score
CCAAUAC,-0.15
UGUGCCC,-0.293
AGGGGAG,0.456
AUGACCG,0.0279
CGACCUC,-0.0645
CCACUUA,-0.249
CGCAACC,-0.269
GUGGCUC,-0.0464
UGGAACA,0.26
ACACCUG,-0.19
AUCCCAG,-0.213
CAGCUGG,-0.124
UCGGAUA,-0.164
GGUAAUU,-0.0355
GCGGGCU,0.066
UUGGAGA,0.0297

# Set 3 — target: CCNB2, cyclin fold, Cln2 fusion (human); technique: yeast growth competition, sequencing; matrix: yeast; setting: weak parent motif; relative to: not given; reading: higher = stronger binding
# Starting sequence: RB1 docking peptide (human); PKPLKKLRFDIEG
Change,normalised enrichment score
PKPRKKLRFDIEG [L4R],0.262
PKPLKKLRFAIEG [D10A],0.776
PKPLKKLRFDVEG [I11V],0.0837
PKPLKKLRLDIEG [F9L],0.406
PKPLNKLRFDIEG [K5N],0.35
PKPLKKLRFDREG [I11R],-0.0887
PKPWKKLRFDIEG [L4W],0.365
PKPLKKLRFDGEG [I11G],0.394
PKPLKKLRFDIER [G13R],0.982
PKPLKKLTFDIEG [R8T],0.276
PKPLKKLRFDILG [E12L],0.559
PKPLKKLREDIEG [F9E],-0.112
PKPLKKLRFDIRG [E12R],0.0534
PKHLKKLRFDIEG [P3H],-0.317
PKPLKKLQFDIEG [R8Q],-0.294

# Set 4 — technique: RNA Bind-n-Seq; form: RNA; matrix: in vitro; concentration: 365 nM; relative to: no-protein control; reading: higher = stronger binding
# Target: RNA binding protein fox-1 homolog 2, RRM domain, GST-SBP tag (RBFOX2, Homo sapiens, UniProt O43251-10, residues 100-194)
# Setting: natural RNA segment, single round, ends assumed
# Shared flanks, not repeated: GGGAGUUCUACAGUCCGACGAUC … UGGAAUUCUCGGGUGCCAA
# Construct (chain): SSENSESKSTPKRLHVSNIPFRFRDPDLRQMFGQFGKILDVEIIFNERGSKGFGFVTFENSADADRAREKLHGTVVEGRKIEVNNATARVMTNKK
Strand,RBNS enrichment (R)
GACUCCCUUGUGGCCUCAACCCGUUCGUCCUUCAGCCUGUCAUCCUUCAGGCACCGACGCCCAACCUGCCGUGACCUGUGCUGUAUGAACAACCUCACUGAGGAUUUCCU,0.374
AAAAUCAGUGAGACAUAAGCCAACAAGAGAAACCAUCUCUGACCACCCCCUCCUCCCCAUCCCACCCUUUGGAAACUCCCCAUUGUCACUGAGAACCACCAAAUCUGACU,0.662
GCUAAACAAUAAAUGUACCUGUCUCAGUCCGCUGGACUGAGUUGUUUUGAAGGUUCUCAUGGUGCACAGCAGUGUGUAUGUGGUGUACAACAGUGUGUAUGCAGCCGUGC,0.477
UUCUGUUUGGCUUUGGCUUUUUGUUGGGGUGAGAGCCCUAGCUCCCAGCUCCCCUCACUAUCUUUUGACACUAAGAUGGAAGGUUACUAAGUUGCAGGAACAGGAUGAAA,0.247
AAUGCCCUGUCUGCUUGUCACCCUCUGAAUCUUCUUGAGCUACAGGUAGUGUUUUCAGUACCAUCAUCACUUCUGUCACUCACAGCAUAAUUGUGGAAGCAGAUUCAUUG,0.635
CUGAGAGUAGGAAGGCCAGGCCCUUGAGGUCCUGUCCCAUGGGACAGCACACACACUACCUGCAAUGGCCUGCCCAUUCCCUUCAGCUAUUUGUCCUUUUCUUACUGGCA,0.526
CAGAGGGAUGGUUCCAUUUUGACAGUGACUUUGGUUUUUUCCUCCGUAUAGAUUCAUCGUGUAGUUCUUCCCAAUAACAAUUACCCAUAUCAUUGAUGUAAAACCCUUGG,1.11
GUGUCCAGAAUACUUGCAGUAUAAAUGAAGAUUUGGUUUUUGUAUAAAAAAAUAAUGCUGUUAAACAGGAGUUGACCUUCAUUUAGUUGAUGUAAUACAUAGCUGUAUGG,0.602

# Repeated from above (set 1):
target,fold induction
"PhoP, residues 12 14 15 18 19 GMGLL (Escherichia coli, UniProt P23836)",0.568
"PhoP, residues 12 14 15 18 19 QQAYL (Escherichia coli, UniProt P23836)",21.1
"PhoP, residues 12 14 15 18 19 LFHKL (Escherichia coli, UniProt P23836)",5.07
